# Measured values collected from several papers.
# Protocols differ between the studies behind these lines. Values joined by “and” are separate records of one study, mostly repeats; a detail may differ.
# Target: Death-associated protein kinase 3 (DAPK3, Homo sapiens, UniProt O43293)
# UniProt O43293, sequence (whole entry, unmodified, looked up): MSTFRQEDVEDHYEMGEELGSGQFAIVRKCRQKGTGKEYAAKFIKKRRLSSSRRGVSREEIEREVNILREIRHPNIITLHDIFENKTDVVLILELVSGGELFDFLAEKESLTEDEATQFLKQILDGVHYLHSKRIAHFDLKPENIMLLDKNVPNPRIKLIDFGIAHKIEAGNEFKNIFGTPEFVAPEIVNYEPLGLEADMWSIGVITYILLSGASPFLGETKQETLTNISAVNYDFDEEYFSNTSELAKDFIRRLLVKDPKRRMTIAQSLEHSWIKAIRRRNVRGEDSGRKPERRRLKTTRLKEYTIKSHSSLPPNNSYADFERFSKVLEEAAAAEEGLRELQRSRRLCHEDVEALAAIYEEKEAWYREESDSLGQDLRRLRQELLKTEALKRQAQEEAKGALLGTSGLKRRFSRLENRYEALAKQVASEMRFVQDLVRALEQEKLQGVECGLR
Compound,test,conditions,how to read,endpoint,result
C=CC(=O)N1CCCC(n2c(=O)c3ncccc3n(Cc3ccc(Oc4ccccc4)cc3)c2=O)C1 (stereo not drawn),"cell-free assay, competition with immobilised ligand",1 µM,,remaining binding,97%
CNC(=O)C1CCN(c2cc(C)c(F)cc2NC(=O)c2ccc(-c3cc(O)ccc3C)c(C)c2)CC1,"binding, competition with immobilised ligand",1 µM,,remaining binding,95%
C=CC(=O)Nc1cccc(-c2cnc3[nH]cc(C(=O)NC(C)(C)C)c3n2)c1,kinase activity,0.1 µM,,inhibition,-1% and 0%
Cc1cnc2nc1Nc1cccc(c1)COC/C=C/COCc1cc(ccc1OCCN1CCOCC1)N2,binding,0.1 µM,,remaining binding,66%
COc1cc(Nc2nc(C)cc(-c3cnn4nc(OC)ccc34)n2)cc(C(F)(F)F)c1,inhibitor,1 µM,relative to: control,remaining activity,100%
CCn1cc(C(=O)O)c(=O)c2c(N)c(F)c(NC3CCCCC3)cc21,kinase activity,"0.1 µM, added: ATP at Km",,inhibition,4.6%
Nc1ncc(-c2cc(-c3cnn(CC(F)(F)F)c3)ncc2F)nc1C(=O)NC1CNCC(F)C1 (stereo not drawn),enzyme activity,1 µM,relative to: DMSO control,remaining activity,99.6%
CNC(=O)C[C@H](Cc1ccc(C#N)cc1)NC(=O)c1cc(-c2ccc(CN[C@H](C)c3ccc(C)cc3)o2)ccc1Cl,"enzyme activity, inhibitor",1 µM,,activity vs control,115%
Cc1cccc(O[C@H]2CCC[C@@H](C(C)CNCc3ccncc3)C2)c1 (relative stereo),"enzyme activity, inhibitor",1 µM,,inhibition,-2%
Cc1nc2c(F)cc(-c3nc(Nc4ccc(CNC(=O)CCCCCCC(=O)NO)cc4)ncc3F)cc2n1C(C)C,"enzyme activity, inhibitor",1 µM,,inhibition,69%
CCN1CCN(Cc2ccc(C(=O)Nc3ccc(C)c(NCc4cnc5[nH]ccc5c4OC)c3)cc2C(F)(F)F)CC1,"binding, competition with immobilised ligand",1 µM,,remaining binding,96%
CN1CCN(Cc2ccc(-c3ccc(CO[C@H]4CCC[C@@H]4NC(=O)c4cc(-c5cnn(C)c5)cnc4N)cc3)cc2)CC1,"enzyme activity, inhibitor",0.1 µM,,inhibition,1%
Cc1ccc(-c2c(/C=C(\C#N)C(=O)NC(C)C)n(CCCO)c3ncnc(N)c23)cc1,"cell-free assay, competition with immobilised ligand",1 µM,,remaining binding,95%
O=C=[N][Ru-4]123([n]4c5ccc(O)cc5c5c6c(c7cc(F)c[n+]1c7c54)C(=O)NC6=O)[S+]1CC[S+]2CC[S+]3CC1 (stereo not drawn),enzyme activity,"100 nM, human enzyme, added: 10 µM ATP",relative to: untreated,remaining activity,18%
NC(=O)C[C@H]1CCc2sc3ncnc(O[C@H]4CC[C@H](N5CCOCC5)CC4)c3c21,"enzyme activity, inhibitor",10 µM,,inhibition,-3%

# A few entries again:
Compound,test,conditions,how to read,endpoint,result
CN1CCN(Cc2ccc(-c3ccc(CO[C@H]4CCC[C@@H]4NC(=O)c4cc(-c5cnn(C)c5)cnc4N)cc3)cc2)CC1,"enzyme activity, inhibitor",0.1 µM,,inhibition,1%
